Published values gathered from unrelated publications.
Parts stem from different laboratories: compare values within a part only. Substitutions count along the parent as printed.

Set 1 — technique: DHFR PCA, deep sequencing; medium: yeast; together with: (+)-ABA 200 µM; baseline: wild-type fitted maximum; direction: higher = stronger binding
Target: ABI1, truncated, D143A, DHFR fusion (Arabidopsis thaliana)
Setting: methotrexate growth selection, single substitutions
Starting sequence: PYL1, truncated, DHFR fusion (Arabidopsis thaliana); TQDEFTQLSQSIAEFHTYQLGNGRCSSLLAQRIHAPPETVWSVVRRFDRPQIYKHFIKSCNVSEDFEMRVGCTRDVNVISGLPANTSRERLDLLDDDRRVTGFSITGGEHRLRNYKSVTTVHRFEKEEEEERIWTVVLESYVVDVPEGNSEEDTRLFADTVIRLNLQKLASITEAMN
Change	relative binding score [%]
I162N	46.8
Y18P	101
S117G	57.2
K58W	72.1
E174A	94.5
A84N	30.7
L20Y	98.2
E67I	99.7
L112R	-6.89
R69C	103
N149Y	26.5
T6Q	101
D3I	95.6
R49N	97.5
G21W	93.6
T101D	3.78

Set 2 — technique: protein binding microarray; molecule type: double-stranded DNA, one strand shown; medium: in vitro; tested at: not given; baseline: not given; direction: higher = stronger binding
Target: Histone acetyltransferase KAT6A, both winged helices, GST fusion (KAT6A, Homo sapiens, UniProt Q92794, residues 1-181)
Setting: 8-mer, flanks averaged, mean of 2 arrays, mostly near background
Residues (chain): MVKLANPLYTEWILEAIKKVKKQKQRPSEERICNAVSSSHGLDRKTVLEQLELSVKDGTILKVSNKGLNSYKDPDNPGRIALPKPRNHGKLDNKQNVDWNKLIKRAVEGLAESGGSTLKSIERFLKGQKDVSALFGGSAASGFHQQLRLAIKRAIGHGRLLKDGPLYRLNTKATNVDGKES
Sequence	E-score
ATGCACCC	0.0625
ACACCAGA	-0.193
CGTTTGTC	0.116
CGCCAGAG	0.00359
CAGGACCA	-0.0696
CTTGGTTA	-0.0728
GTTCGAAA	0.169
AGGCGCGA	0.269
GTCACATA	0.0645
AACGTTCG	0.0704
CACTCCTG	-0.17
ATGCTCTG	-0.109
CGATCCAC	-0.179
AGCCCGCC	0.191
AGAAAGCG	0.168
CCATGATC	-0.128
CTCCGTCA	0.0173
ACCGGGAT	0.165
CTAAAGTA	-0.145
TTCATAAA	-0.0948
AAAGAAGG	-0.161
AATTGTAA	-0.0107
AAATTCAT	-0.088
TATAGTCA	-0.176
AGTGCAGG	-0.141

Set 3 — technique: aptamer microarray, sandwich; molecule type: DNA with 2'F-ANA; medium: in vitro; tested at: 200 nM; together with: Cy3 exosite-II aptamer, 400 nM; direction: higher = stronger binding; sequence: GGTTGGTGTGGTTGG
Target: Prothrombin, mature alpha-thrombin (F2, Homo sapiens, UniProt P00734)
Setting: whole 15-mer aptamer, many near background
Modification	mean fluorescence intensity
2'F-ANA at 2 3 6 7 10 12 13 14 15	275 a.u.
2'F-ANA at 1 3 4 5 7 8 11	96.4 a.u.
2'F-ANA at 1 2 4 5 7 10 11 13 14 15	44.5 a.u.
2'F-ANA at 1 2 3 5 8 10 11 12 13 14 15	50.7 a.u.
2'F-ANA at 1 4 5 7 8 9 12 15	113 a.u.
2'F-ANA at 2 7 9 14	157 a.u.
2'F-ANA at 1 2 3 4 7 8 9 11 15	171 a.u.
2'F-ANA at 3 4 5 6 9 12 13	109 a.u.
2'F-ANA at 1 3 6 8 11 12 14	119 a.u.
2'F-ANA at 1 2 4 5 6 7 8 10 11 12 14 15	52.9 a.u.
2'F-ANA at 1 2 5 6 7 10 11	47.3 a.u.
2'F-ANA at 1 4 5 6 7 9 10 11 13	47.4 a.u.
2'F-ANA at 4 5 6 7 12 13	92.6 a.u.
2'F-ANA at 5 6 10 11 12 13 14	42.7 a.u.
2'F-ANA at 2 3 4 5 7 8 9 10 11 12 13	116 a.u.
2'F-ANA at 1 2 3 4 9 10 12 14 15	49.8 a.u.
2'F-ANA at 1 3 8 9 10 12 13 14 15	62.7 a.u.
2'F-ANA at 1 4 5 8 9 10 11 14 15	56.5 a.u.
2'F-ANA at 1 2 3 5 7 8 9 10 14 15	51 a.u.
2'F-ANA at 1 3 5 7 9 10 11 13 14 15	45.5 a.u.
2'F-ANA at 2 3 4 5 7 12 13 14 15	51.7 a.u.
2'F-ANA at 1 2 4 5 7 9 10 11 14	51.3 a.u.
2'F-ANA at 1 5 7 10 12 13 14	50.3 a.u.
2'F-ANA at 1 2 3 4 8 10 11 13 14	49.6 a.u.
2'F-ANA at 6 10 12	213 a.u.

Set 4 — technique: RNA Bind-n-Seq; molecule type: RNA; medium: in vitro; tested at: 365 nM; baseline: no-protein control; direction: higher = stronger binding
Target: RNA binding protein fox-1 homolog 2, RRM domain, GST-SBP tag (RBFOX2, Homo sapiens, UniProt O43251-10, residues 100-194)
Setting: natural RNA segment, single round, ends assumed
All sequences stand within: GGGAGUUCUACAGUCCGACGAUC … UGGAAUUCUCGGGUGCCAA
Target sequence (chain): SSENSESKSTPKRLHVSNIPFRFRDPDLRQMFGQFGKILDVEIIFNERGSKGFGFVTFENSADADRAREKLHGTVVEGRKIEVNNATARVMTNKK
Sequence	RBNS enrichment (R)
ACCCUGUGCUCCUCUGGCCAGCUCUGGAGGAAUCCUCAUCCAUCAUUACCACACCCUUCCCAGGGACCAGCACCUUUAAGCACUCCAGGGCCUUGAGGGAAUAAGGGGCC	0.502
GGGUGGCUUCCUCGAACGAUUAAACAAACUAGGUGCUUGUAUAUAAUUUAUUACAGUUUACUCUACUGCAUUUCUGUCAAGUUGAAAUGCAUGCCCUUCAGGGGAAGACU	0.99
CACGACCCUUCCCACCCCAUUCACUGGGCUGGCUCCGACCUUUCCCAGGGCUAGCCUUCACUGCCCUAGUGGCAGCGCUUCCCAGGGGUGCUCUCUGGCUCCCAGAUGUC	0.391
UCCCGCCUCCCUCUCAGAGGCCUGCUGCCAGUGCAGCCACUGGCUUGGAACACCUUGGGGUCCCUCCACCCCACAGAACCUUCAACCCAGUGGGUCUGGGAUAUGGCUGC	0.278
GUACCGAGCAAUGAAACUGAAGGUACAGCACUGGGCGUCUGGGGACCCCACGCUCUCCCAACGCCCAGACUAUGUGGAGCUGCCAAGCCCCUGUCUGGGCACCUCUGCCC	0.813
GCUUGAAUAUUUGCUAUAUAGAAAUAUAGUAUGGAAAGUUUUUGGUCUUAAUGUAGCUACUGUGCGGGUCACAGUUUCUCCCAAUGAUUAUGACUGGGACAUUCUUUGGU	0.682
GUAAAAAGUGUCUUUUCUCUUAGUAUAUAAAUAAAUAAAAUGCAAAUUAAGAGUGUAAGCAGUUGUGAAUCAUUACAAGCAGUCUGGGAUAACUAACUCCUAGGGAUAAC	0.43
UCUCAAGCAGCAGAAUCAGCCUACGCUCCCCAGCCUCAGUGCCCCUGCCCCACACAGGUCACGCUGGCAAGGCGAUGACCAGUUUCCGAAACGCUGGAUCCCCAAGGGUA	0.322
ACCAAAUUGUUGUGUUGAGAUGAUAUUUAACUUUUUGCCAAAUAAAAUAUAUUGAUUCUUUUCUAUUUUUGCGGGUCUGCUCUUUGCACCUUCUUCUCUGGGUCAGGGGA	1.85
GGAAGAGAGAGAGAGAGACUGACUGACUCAGAGAACUGUGUGGUAGGACAACAGCAAGAUGAGCCUGUGCAUGAAGAACUCACGGGGCACUUCCCCACAAUGCUGCAUUA	16.4
AACAGGAUAAAGUCUUGUGUAUAGCAAAGUAGUUGCAUCUGUUUAUUUUCUAUUUAUUAUUGUUACAAUAGGUAAUAGUUAUAGCAAUUAUUUAUUGAUUUGUAACAACU	0.764
CAACCUCCUGUGCAUUUAAUUAAAUAGGCCAAAUUUUUGCUGCUUAGGUCAUCUCAAGGCUGAUACUUGAGCUGUGUGCCCAGAGAUCAUGCAUUUAGAUUUAUAUUUUU	1.25

For quick reference, copied from above (set 2):
Sequence	E-score
CAGGACCA	-0.0696
CTTGGTTA	-0.0728
GTTCGAAA	0.169
AGGCGCGA	0.269
GTCACATA	0.0645
AACGTTCG	0.0704
CACTCCTG	-0.17
ATGCTCTG	-0.109
CGATCCAC	-0.179
AGCCCGCC	0.191
AGAAAGCG	0.168
CCATGATC	-0.128
CTCCGTCA	0.0173
